Results gathered from unrelated publications.
Every numbered part comes from another study and shows a few of its results, in no order. Substitutions count along the parent as printed.

Block 1 — target: CCNE1, cyclin fold, Cln2 fusion (human); method: yeast growth competition, sequencing; sample: yeast; notes: strong parent motif; baseline: not given; direction: higher = stronger binding; measurement: normalised enrichment score
Starting sequence: INSM1 docking peptide (human); PKAIRKLHFEDEV; partner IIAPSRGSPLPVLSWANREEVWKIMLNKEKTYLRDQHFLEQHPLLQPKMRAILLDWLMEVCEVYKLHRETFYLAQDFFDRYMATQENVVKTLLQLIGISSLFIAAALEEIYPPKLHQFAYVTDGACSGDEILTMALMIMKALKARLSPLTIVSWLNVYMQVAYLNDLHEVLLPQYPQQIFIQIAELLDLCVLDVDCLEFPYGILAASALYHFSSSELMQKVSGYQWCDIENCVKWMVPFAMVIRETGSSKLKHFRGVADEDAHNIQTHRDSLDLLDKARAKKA
Change = PKEIRKLHFEDEV [A3E]; value = 0.406
Change = PKAICKLHFEDEV [R5C]; value = 0.55
Change = PKAIRKLHFEDHV [E12H]; value = 3.73
Change = PKAIRKLHFEDPV [E12P]; value = 3.7
Change = PKAIRKLHFEDMV [E12M]; value = 4.03
Change = PKAIRRLHFEDEV [K6R]; value = 4.54
Change = PWAIRKLHFEDEV [K2W]; value = 2.97
Change = PKAPRKLHFEDEV [I4P]; value = 0.648
Change = PKAIRKLHFEQEV [D11Q]; value = 2.76
Change = PKAIRCLHFEDEV [K6C]; value = 2.55

Block 2 — method: RNA Bind-n-Seq; molecule type: RNA; sample: in vitro; concentration: 1 µM; notes: whole 134-nt RNA, ends assumed; with: 150 mM KCl; baseline: input library; direction: higher = stronger binding; measurement: log2 enrichment
Target: Ras GTPase-activating protein-binding protein 1, C-terminal RGG region (G3BP1, Homo sapiens, UniProt Q13283)
Chain of UniProt Q13283 (whole entry, looked up): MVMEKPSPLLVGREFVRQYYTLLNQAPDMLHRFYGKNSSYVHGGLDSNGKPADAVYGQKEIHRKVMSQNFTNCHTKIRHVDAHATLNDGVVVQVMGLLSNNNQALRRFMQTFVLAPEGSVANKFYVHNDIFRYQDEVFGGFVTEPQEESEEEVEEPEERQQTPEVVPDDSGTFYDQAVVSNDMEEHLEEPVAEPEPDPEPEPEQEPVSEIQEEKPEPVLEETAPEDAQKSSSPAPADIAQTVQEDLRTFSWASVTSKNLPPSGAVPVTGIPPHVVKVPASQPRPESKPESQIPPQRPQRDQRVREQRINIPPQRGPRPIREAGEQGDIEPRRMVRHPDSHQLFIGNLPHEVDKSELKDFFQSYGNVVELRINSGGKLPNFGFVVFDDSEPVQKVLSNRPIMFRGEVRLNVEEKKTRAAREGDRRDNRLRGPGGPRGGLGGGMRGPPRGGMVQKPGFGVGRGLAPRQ
All sequences stand within: GGGAGUUCUACAGUCCGACGAUC … UGGAAUUCUCGGGUGUCAAGG
Oligonucleotide = AGUCCUGUGCUACACAUCGUAUGUACCGAAUCAAACCCCCCCAAAUUUAAAUUUAAAAAAGUAUUAUGUUACGCCGUUCGGAUCUGCACU; value = -0.68
Oligonucleotide = UCCUGUGCUACACAUCGUAUGUACCGAAUCGGGGAGGGGUUUUUUUGGGGUUUUUGGGGAAAGUAUUAUGUUACGCCGUUCGGAUCUGCA; value = 1.36
Oligonucleotide = CUCAAGUCCUGUGCUACACAUCGUAUGUACCGAAUCGGAGGAGGAAAAAAAGGAAAGUAUUAUGUUACGCCGUUCGGAUCUGCACUUCCA; value = -1.35
Oligonucleotide = UGGGAGGUGGACUUUGUUUAUUUUUUUAGCUCAUUUCCAGGGGUGGGAAUUUUUUUUUAAUAUGUGUCAUGAAUAAAGUUGUUUUUGAAA; value = 3.57
Oligonucleotide = CCUGUGCUACACAUCGUAUGUACCGAAUCGGGGUUUUUUGGUUUUUUGGGGUUUUUUGGGAAAGUAUUAUGUUACGCCGUUCGGAUCUGC; value = -1.56
Oligonucleotide = UAACUUUAGAGGAGGAUCUGACGGAUAUGGCAGUGGACGUGGAUUUGGGGAUGGCUAUAAUGGGUAUGGAGGAGGACCUGGAGGUGGCAA; value = -1.61
Oligonucleotide = UGGGAGGUGGAUUUUGUUUAUUUUUUUAGCUCAUUUCCAGGGGUGGGAAUUUUUUUUUAAUAUGUGUCAUGAAUCAAGUUGUUUUUGAAA; value = 2.46
Oligonucleotide = CAAGUCCUGUGCUACACAUCGUAUGUACCGAAUCGGUGGAAAAAGGAAAAAAAGGAAAGUAUUAUGUUACGCCGUUCGGAUCUGCACUUC; value = -1.33
Oligonucleotide = AGUCCUGUGCUACACAUCGUAUGUACCGAAUCGGGUUUUUGGGUUUUUGGGUUUGGGAAAGUAUUAUGUUACGCCGUUCGGAUCUGCACU; value = 0.565
Oligonucleotide = CCUCAAGUCCUGUGCUACACAUCGUAUGUACCGAAUCGGAAAAAGGAGGUGGAAAGUAUUAUGUUACGCCGUUCGGAUCUGCACUUCCAG; value = -0.681
Oligonucleotide = GUCCUGUGCUACACAUCGUAUGUACCGAAUCAAAUUUUUUUAAAUUUUUAAACCCAAAAAAGUAUUAUGUUACGCCGUUCGGAUCUGCAC; value = -0.926
Oligonucleotide = UGGGAGGUGGAUUUUGUUUAUUUUUUUAGCUCAUUUCCAGGCGUGGGAAUUUUUUUUUAAUAUGUGUCAUGAAUAAAGUUGUUUUUGAAA; value = 3.08
Oligonucleotide = UGUGCUACACAUCGUAUGUACCGAAUCGGGGAAAAAAAGGGGAAAAAGGGGUUUUUUUGGGGAAAGUAUUAUGUUACGCCGUUCGGAUCU; value = 0.931
Oligonucleotide = CCUGUGCUACACAUCGUAUGUACCGAAUCGGGGAAAAAAAGGGGAGGGGAAAAAAAGGGGAAAGUAUUAUGUUACGCCGUUCGGAUCUGC; value = 0.208

Block 3 — method: protein binding microarray; molecule type: double-stranded DNA, one strand shown; sample: in vitro; concentration: not given; baseline: not given; direction: higher = stronger binding; measurement: E-score
Target: Histone acetyltransferase KAT6A, winged helix 2, GST fusion (KAT6A, Homo sapiens, UniProt Q92794, residues 85-181)
Notes: 8-mer, flanks averaged, mean of 2 arrays, mostly near background
Target sequence (chain): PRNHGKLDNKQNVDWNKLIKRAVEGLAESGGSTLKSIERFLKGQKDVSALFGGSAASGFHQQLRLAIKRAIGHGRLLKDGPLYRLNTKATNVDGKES
Oligonucleotide = ATCTGTTA; value = -0.0571
Oligonucleotide = CGAGGGAG; value = 0.0934
Oligonucleotide = TCAACACA; value = 0.143
Oligonucleotide = ACATAAAC; value = 0.0145
Oligonucleotide = CCAACCTA; value = 0.081
Oligonucleotide = CTGGGAAG; value = 0.0979
Oligonucleotide = GGGGCAGA; value = 0.152
Oligonucleotide = ACCACGCT; value = -0.105
Oligonucleotide = ACACGCTG; value = -0.0031
Oligonucleotide = GGCATTAC; value = 0.00302
Oligonucleotide = TCGAAACA; value = 0.2
Oligonucleotide = AAGCAGAA; value = 0.0712
Oligonucleotide = AGAACCAT; value = 0.0748
Oligonucleotide = AGACTAGC; value = -0.169
Oligonucleotide = GGGGCCAA; value = -0.0799
Oligonucleotide = CGACCGCA; value = 0.105

Further values, each from its own experiment
Substance = PhoQ, residues 284 288 289 292 302 303 SLANKL; target = PhoP, residues 12 14 15 18 19 VQALL (Escherichia coli, UniProt P23836); assay = Sort-seq, refers to: YFP reporter; test system = E. coli; setting = PhoQ-PhoP variant library, with: 10 µM Mg2+; scale = baseline: high Mg2+ state, higher = stronger signaling; measurement = fold induction; value = 12.8

Some of these lines once more (block 3):
Oligonucleotide = ATCTGTTA; value = -0.0571
Oligonucleotide = CGAGGGAG; value = 0.0934
Oligonucleotide = TCAACACA; value = 0.143
